Results collected from several papers.
A part holds a random share of what one study measured. ± gives the spread as reported.
Chain of UniProt O15146 (whole entry, looked up): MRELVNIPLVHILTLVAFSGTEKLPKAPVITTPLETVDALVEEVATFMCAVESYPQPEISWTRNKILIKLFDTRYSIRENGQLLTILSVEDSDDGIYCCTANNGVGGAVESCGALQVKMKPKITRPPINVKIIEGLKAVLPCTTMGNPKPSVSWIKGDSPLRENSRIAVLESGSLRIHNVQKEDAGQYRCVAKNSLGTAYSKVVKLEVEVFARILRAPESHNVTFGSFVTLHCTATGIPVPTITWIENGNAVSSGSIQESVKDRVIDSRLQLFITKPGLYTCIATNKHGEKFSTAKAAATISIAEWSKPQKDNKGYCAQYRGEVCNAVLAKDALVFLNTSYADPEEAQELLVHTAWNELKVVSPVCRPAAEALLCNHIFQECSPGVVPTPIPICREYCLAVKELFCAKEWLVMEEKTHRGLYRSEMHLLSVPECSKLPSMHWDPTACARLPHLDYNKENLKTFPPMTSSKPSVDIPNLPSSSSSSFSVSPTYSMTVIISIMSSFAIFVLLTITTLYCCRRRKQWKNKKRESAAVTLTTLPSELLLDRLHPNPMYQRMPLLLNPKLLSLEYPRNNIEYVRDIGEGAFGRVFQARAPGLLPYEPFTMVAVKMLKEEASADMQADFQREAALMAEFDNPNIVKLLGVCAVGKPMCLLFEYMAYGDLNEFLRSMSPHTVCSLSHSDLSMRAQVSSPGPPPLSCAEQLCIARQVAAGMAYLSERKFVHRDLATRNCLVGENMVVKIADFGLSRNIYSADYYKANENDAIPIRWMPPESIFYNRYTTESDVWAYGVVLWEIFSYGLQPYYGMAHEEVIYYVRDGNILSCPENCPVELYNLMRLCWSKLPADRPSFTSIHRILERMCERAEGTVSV
Chain of UniProt P10721 (whole entry, looked up): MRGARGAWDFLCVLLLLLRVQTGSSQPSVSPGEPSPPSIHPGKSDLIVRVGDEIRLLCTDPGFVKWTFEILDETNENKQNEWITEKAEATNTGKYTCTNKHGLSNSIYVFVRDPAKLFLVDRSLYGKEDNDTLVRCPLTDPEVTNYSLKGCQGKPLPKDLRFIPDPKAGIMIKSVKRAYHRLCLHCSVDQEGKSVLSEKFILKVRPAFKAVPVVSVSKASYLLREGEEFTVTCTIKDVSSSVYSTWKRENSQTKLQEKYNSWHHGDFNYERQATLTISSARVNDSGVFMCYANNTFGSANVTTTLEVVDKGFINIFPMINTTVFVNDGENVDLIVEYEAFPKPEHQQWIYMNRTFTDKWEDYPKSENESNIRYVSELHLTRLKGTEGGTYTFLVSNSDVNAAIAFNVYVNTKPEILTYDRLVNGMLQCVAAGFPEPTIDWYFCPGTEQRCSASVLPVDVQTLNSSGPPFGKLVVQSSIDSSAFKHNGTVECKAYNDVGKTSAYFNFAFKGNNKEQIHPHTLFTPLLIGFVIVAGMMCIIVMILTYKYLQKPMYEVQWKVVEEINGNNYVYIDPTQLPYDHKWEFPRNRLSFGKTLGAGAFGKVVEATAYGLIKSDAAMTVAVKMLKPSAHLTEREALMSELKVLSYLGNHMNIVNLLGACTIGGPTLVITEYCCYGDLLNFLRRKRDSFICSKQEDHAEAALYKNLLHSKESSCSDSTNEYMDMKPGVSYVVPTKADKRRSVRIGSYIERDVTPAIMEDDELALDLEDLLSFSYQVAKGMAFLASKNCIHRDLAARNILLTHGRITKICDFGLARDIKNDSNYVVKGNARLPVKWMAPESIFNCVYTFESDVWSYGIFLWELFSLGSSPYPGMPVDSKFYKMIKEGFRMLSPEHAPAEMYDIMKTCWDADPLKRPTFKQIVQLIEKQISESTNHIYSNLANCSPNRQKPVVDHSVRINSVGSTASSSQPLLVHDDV
Chain of UniProt P16234 (whole entry, looked up): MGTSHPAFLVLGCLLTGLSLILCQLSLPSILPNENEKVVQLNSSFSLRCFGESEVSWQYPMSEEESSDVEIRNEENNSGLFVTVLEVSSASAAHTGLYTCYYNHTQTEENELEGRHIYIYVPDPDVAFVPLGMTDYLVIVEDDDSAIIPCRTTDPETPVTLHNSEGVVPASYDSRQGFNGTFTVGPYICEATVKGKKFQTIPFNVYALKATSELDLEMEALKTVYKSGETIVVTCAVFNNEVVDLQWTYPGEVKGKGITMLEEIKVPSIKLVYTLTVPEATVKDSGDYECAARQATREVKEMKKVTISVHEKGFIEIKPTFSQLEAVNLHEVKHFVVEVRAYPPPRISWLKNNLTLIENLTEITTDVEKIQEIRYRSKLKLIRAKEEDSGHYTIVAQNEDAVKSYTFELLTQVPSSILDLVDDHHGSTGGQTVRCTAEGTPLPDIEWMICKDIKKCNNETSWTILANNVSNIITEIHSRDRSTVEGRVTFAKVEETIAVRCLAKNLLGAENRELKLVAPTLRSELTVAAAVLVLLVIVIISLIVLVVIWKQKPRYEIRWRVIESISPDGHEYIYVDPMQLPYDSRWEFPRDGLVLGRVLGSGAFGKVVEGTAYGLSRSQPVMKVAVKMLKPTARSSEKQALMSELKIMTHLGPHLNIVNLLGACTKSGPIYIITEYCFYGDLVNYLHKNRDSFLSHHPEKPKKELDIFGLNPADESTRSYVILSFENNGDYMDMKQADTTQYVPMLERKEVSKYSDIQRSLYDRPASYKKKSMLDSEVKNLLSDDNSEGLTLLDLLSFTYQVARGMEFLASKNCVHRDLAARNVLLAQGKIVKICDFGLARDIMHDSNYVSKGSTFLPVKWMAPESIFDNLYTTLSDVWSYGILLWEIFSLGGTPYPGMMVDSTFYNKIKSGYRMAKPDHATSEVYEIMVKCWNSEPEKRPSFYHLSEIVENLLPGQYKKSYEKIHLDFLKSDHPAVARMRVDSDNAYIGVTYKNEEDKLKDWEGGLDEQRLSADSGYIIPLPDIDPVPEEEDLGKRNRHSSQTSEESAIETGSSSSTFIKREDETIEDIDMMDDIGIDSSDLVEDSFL
Chain of UniProt Q13555 (whole entry, looked up): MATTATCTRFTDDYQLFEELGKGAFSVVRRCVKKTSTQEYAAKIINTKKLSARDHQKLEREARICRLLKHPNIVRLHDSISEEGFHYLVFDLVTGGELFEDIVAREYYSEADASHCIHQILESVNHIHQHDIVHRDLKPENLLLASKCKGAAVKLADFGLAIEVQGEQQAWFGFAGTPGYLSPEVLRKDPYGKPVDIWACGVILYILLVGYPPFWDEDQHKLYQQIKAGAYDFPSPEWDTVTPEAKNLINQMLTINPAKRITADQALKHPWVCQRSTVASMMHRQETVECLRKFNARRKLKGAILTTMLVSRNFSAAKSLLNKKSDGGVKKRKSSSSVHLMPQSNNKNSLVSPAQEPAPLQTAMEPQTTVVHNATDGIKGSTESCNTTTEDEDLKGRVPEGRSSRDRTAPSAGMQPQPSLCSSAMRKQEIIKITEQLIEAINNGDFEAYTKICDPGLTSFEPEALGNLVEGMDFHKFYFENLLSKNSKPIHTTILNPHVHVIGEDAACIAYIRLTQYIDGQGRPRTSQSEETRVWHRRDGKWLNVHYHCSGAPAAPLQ
Chain of UniProt Q92630 (whole entry, looked up): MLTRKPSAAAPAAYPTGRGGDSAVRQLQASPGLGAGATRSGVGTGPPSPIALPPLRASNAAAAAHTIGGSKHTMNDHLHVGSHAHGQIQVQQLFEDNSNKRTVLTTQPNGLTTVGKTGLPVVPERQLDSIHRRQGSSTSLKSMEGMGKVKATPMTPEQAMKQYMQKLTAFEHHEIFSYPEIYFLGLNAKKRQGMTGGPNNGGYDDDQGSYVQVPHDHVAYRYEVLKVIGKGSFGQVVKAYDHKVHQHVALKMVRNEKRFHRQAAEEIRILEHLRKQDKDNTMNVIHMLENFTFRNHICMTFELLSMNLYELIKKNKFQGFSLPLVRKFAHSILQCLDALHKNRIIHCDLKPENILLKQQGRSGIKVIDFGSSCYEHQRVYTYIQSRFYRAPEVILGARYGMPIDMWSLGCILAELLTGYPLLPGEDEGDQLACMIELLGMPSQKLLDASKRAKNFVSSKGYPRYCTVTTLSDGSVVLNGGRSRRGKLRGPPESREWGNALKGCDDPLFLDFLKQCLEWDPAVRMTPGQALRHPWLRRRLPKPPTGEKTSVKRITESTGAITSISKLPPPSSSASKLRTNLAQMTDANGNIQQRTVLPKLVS
Chain of UniProt Q96NX5 (whole entry, looked up): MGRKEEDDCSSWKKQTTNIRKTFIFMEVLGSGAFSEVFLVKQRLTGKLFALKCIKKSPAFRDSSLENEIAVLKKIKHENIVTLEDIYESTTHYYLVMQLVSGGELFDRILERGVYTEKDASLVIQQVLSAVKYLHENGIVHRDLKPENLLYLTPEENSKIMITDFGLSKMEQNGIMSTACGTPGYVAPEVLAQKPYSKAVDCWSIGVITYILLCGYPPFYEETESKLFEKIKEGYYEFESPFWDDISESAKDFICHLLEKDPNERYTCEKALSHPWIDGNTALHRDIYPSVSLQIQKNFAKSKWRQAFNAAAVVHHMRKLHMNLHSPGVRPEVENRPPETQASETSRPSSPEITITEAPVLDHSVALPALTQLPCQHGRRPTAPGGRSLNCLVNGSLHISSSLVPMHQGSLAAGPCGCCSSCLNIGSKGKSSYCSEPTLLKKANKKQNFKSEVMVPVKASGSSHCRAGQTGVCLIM
Chain of UniProt P28482 (whole entry, looked up): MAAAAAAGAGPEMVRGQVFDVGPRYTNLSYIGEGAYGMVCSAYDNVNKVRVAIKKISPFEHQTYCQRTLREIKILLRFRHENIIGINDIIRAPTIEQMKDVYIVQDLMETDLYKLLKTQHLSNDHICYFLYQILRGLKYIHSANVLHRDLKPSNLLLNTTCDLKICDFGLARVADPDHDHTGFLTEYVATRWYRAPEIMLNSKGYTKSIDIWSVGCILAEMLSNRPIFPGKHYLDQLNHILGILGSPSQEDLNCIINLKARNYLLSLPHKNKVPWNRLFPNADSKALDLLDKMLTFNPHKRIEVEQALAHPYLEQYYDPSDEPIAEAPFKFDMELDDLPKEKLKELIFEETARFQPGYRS

Set 1
Structure (SMILES): O=C(Nc1cnc(Oc2ccc(F)cc2)nc1)N1CCc2ncccc2[C@@H]1c1ccc(F)cc1
Effect on: cell-free assay
Technique: competition with immobilised ligand
Concentration: 1 µM
target | remaining binding [%]
Mitogen-activated protein kinase 1 (MAPK1, Homo sapiens, UniProt P28482) | 100
Ribosomal protein S6 kinase alpha-6, N-terminal kinase domain (RPS6KA6, Homo sapiens, UniProt Q9UK32) | 100
ALK tyrosine kinase receptor (ALK, Homo sapiens, UniProt Q9UM73, L1196M) | 100
Insulin receptor (INSR, Homo sapiens, UniProt P06213) | 81
Protein kinase C theta type (PRKCQ, Homo sapiens, UniProt Q04759) | 94
Fibroblast growth factor receptor 3 (FGFR3, Homo sapiens, UniProt P22607) | 89
Dual specificity tyrosine-phosphorylation-regulated kinase 2 (DYRK2, Homo sapiens, UniProt Q92630) | 81
eIF-2-alpha kinase GCN2, C-terminal kinase domain (EIF2AK4, Homo sapiens, UniProt Q9P2K8, S808G) | 85
NT-3 growth factor receptor (NTRK3, Homo sapiens, UniProt Q16288) | 75
STE20-like serine/threonine-protein kinase (SLK, Homo sapiens, UniProt Q9H2G2) | 82
Platelet-derived growth factor receptor alpha (PDGFRA, Homo sapiens, UniProt P16234) | 93
Mast/stem cell growth factor receptor Kit, autoinhibited (KIT, Homo sapiens, UniProt P10721) | 81
Serine/threonine-protein kinase Chk2 (CHEK2, Homo sapiens, UniProt O96017) | 92
Calcium/calmodulin-dependent protein kinase type 1G (CAMK1G, Homo sapiens, UniProt Q96NX5) | 97
Rhodopsin kinase GRK1 (GRK1, Homo sapiens, UniProt Q15835) | 91
Muscle, skeletal receptor tyrosine-protein kinase (MUSK, Homo sapiens, UniProt O15146) | 86
Calcium/calmodulin-dependent protein kinase type II subunit gamma (CAMK2G, Homo sapiens, UniProt Q13555) | 80

Set 2
Structure (SMILES): CC(C)n1cnc(-c2ccc(F)cc2)c1-c1ncc(C(=O)Nc2ccc(N3CCN(C)CC3)cc2)[nH]1
Technique: phase 2a trial
Host: idiopathic pulmonary fibrosis patients
conditions | patients with gastrointestinal disorders [%]
dose not given, adverse event grade 3, all dose arms pooled | 0
dose not given, grade 1, arms pooled | 9
60 mg once daily, adverse event grade 5 | 0
dose not given, grade 2, arms pooled | 5
30 mg once daily, adverse event grade 4 | 0

Set 3
Target: Serine/threonine-protein kinase VRK1 (VRK1, Homo sapiens, UniProt Q99986)
Effect on: enzyme activity
Mode: inhibitor
Concentration: 0.5 µM
Baseline: control
Residues (Q99986 1-396): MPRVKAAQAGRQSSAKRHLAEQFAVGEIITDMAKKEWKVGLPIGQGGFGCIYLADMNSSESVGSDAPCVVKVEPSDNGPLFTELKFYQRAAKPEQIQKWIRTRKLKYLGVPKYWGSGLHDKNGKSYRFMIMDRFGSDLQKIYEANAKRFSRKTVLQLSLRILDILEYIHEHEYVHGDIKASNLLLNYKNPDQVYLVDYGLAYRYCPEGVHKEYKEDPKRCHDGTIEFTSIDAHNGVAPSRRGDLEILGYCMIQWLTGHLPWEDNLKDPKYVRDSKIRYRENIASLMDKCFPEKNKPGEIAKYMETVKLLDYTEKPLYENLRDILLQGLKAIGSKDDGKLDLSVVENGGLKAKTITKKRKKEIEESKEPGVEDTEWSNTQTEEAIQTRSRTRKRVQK
SMILES | remaining activity
CCc1[nH]c(-c2ccc(OC)cc2)nc1-c1ccncc1 | 104%
CC(=O)c1ccc(N2CCOCC2)cc1O | 98.1%
COc1cc(Nc2c(C#N)cnc3cc(OCCCN4CCN(C)CC4)c(OC)cc23)c(Cl)cc1Cl | 100%
CCCC(=O)Oc1ccc2[nH]c(C(=O)c3cc4ccccc4[nH]3)cc2c1 | 85.9%
Nc1nccc(-c2c(-c3ccc(F)cc3)ncn2C2CCNCC2)n1 | 83.4%
Nc1nc(Nc2ccc(S(N)(=O)=O)cc2)nn1C(=O)c1c(F)cccc1F | 90.4%
Cc1cncc2cccc(S(=O)(=O)N3CCCN(C(=O)CN)C[C@@H]3C)c12 | 102%
CC#CC(=O)Nc1cc2c(Nc3ccc(F)c(Cl)c3)ncnc2cn1 | 87.8%
Oc1ccc(Nc2nc(-c3ccc(Cl)cc3)cs2)cc1 | 99.8%
CC(C)(C)n1nc(Cc2cccc3ccccc23)c2c(N)ncnc21 | 85.5%
O=C1Cc2c([nH]c3ccc([N+](=O)[O-])cc23)-c2ccccc2N1 | 90.8%
O=C1NC(=O)C(c2c[nH]c3ccccc23)=C1c1c[nH]c2ccccc12 | 109%
NC(=O)c1ccc(N(C(N)=O)c2c(F)cccc2F)nc1-c1ccc(F)cc1F | 104%

Set 4
Structure (SMILES): Oc1ccc(-c2nc(-c3ccncc3)c(-c3ccc(F)cc3)[nH]2)cc1
Effect on: binding
Technique: thermal shift
Concentration: 10 µM
Direction: higher = stronger binding
target | delta Tm
Protein polybromo-1, BD4 (PBRM1, Homo sapiens, UniProt Q86U86) | 0.78 ± 0.09 °C
Peregrin, isoform A (BRPF1, Homo sapiens, UniProt P55201) | -1.22 ± 0.13 °C
Bromodomain and PHD finger-containing protein 3 (BRPF3, Homo sapiens, UniProt Q9ULD4) | 0.96 ± 0.11 °C
SP140L, PHD-bromodomain (Homo sapiens, UniProt Q9H930) | 0.28 ± 0.09 °C
Transcription intermediary factor 1-alpha, PHD-bromodomain (TRIM24, Homo sapiens, UniProt O15164) | -0.35 ± 0.2 °C

Repeated from above (set 1):
target | remaining binding [%]
Platelet-derived growth factor receptor alpha (PDGFRA, Homo sapiens, UniProt P16234) | 93
Mast/stem cell growth factor receptor Kit, autoinhibited (KIT, Homo sapiens, UniProt P10721) | 81
Serine/threonine-protein kinase Chk2 (CHEK2, Homo sapiens, UniProt O96017) | 92
Calcium/calmodulin-dependent protein kinase type 1G (CAMK1G, Homo sapiens, UniProt Q96NX5) | 97
Rhodopsin kinase GRK1 (GRK1, Homo sapiens, UniProt Q15835) | 91
Muscle, skeletal receptor tyrosine-protein kinase (MUSK, Homo sapiens, UniProt O15146) | 86
